# Measurements collected from several papers.
# Each line is one published result; not all experiments were run side by side. Numbers after ± are the reported error.
# UniProt P22894, sequence (whole entry, looked up): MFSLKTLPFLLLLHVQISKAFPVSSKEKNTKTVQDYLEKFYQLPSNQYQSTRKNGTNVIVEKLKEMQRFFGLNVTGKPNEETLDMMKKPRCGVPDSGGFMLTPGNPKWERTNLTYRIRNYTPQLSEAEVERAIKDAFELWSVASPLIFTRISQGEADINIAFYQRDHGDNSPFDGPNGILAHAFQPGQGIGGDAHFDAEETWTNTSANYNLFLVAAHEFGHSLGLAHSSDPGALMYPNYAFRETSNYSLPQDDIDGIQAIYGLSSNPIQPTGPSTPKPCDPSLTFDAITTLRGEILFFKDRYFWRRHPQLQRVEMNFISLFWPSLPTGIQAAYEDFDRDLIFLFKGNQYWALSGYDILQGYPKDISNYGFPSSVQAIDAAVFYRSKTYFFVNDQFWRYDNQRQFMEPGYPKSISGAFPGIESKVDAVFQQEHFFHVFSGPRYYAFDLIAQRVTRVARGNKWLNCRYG
# UniProt O43684, sequence (whole entry, looked up): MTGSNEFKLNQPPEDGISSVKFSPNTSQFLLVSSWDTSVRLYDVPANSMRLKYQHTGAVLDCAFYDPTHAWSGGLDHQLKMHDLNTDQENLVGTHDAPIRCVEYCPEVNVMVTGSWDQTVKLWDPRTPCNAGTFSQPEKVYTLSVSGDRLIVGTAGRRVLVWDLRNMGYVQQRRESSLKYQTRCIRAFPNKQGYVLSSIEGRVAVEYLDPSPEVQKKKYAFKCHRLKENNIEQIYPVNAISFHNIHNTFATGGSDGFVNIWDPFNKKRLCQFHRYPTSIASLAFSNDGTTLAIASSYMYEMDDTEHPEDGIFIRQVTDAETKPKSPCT
SMILES,target or system,test,test system,setting,how to read,quantity,value
CC[C@H](C)[C@H](NC(=O)[C@H](Cc1ccccc1)NC(=O)[C@H](CCC(=O)O)NC(=O)[C@H](CCCNC(=N)N)NC(=O)[C@H](C)NC(=O)[C@H](C)NC(=O)[C@H](CCC(N)=O)NC(=O)[C@H](CCC(=O)O)NC(=O)[C@H](CCC(=O)O)NC(=O)[C@H](CC(C)C)NC(=O)[C@H](Cc1ccc(O)cc1)NC(=O)[C@H](CO)NC(=O)[C@H](CO)NC(=O)[C@@H](NC(=O)[C@H](CC(=O)O)NC(=O)[C@H](CO)NC(=O)[C@@H](NC(=O)[C@H](Cc1ccccc1)NC(=O)[C@@H](NC(=O)CNC(=O)[C@H](CCC(=O)O)NC(=O)[C@H](C)NC(=O)CCc1c[nH]cn1)[C@@H](C)O)[C@@H](C)O)C(C)C)C(=O)N[C@@H](C)C(=O)N[C@@H](Cc1c[nH]c2ccccc12)C(=O)N[C@@H](CC(C)C)C(=O)N[C@H](C(=O)N[C@@H](CCCNC(=N)N)C(=O)NCC(=O)N[C@@H](CCCNC(=N)N)C(=O)N[C@@H](CCCCNC(=O)COCCOCCNC(=O)COCCOCCNC(=O)CC[C@H](NC(=O)CCCCCCCCCCCCCCCCC(=O)O)C(=O)O)C(=O)NCC(=O)NCC(=O)N[C@@H](CO)C(=O)N[C@@H](CCCCNc1c(NCCCCCN(O)C(=O)CCC(=O)NCCCCCN(O)C(=O)CCC(=O)NCCCCCN(O)C(C)=O)c(=O)c1=O)C(=O)O)C(C)C [zirconium-89 labelled],,,"rat, kidney","iv, 3 nmol/kg, 168 h, ex vivo",,tissue uptake,7.15 %ID/g
CO[C@H]1C[C@@H]2CC[C@@H](C)[C@@](O)(O2)C(=O)C(=O)N2CCCC[C@H]2C(=O)O[C@H]([C@H](C)C[C@@H]2CC[C@@H](OC(=O)NCCOCCOCCOCCOCCOCCOCCOCCOCCC(=O)N3CCc4cc(Cn5nc(-c6ccc7oc(N)nc7c6)c6c(N)ncnc65)ccc4C3)[C@H](OC)C2)C[C@@H](O)[C@H](C)/C=C(\C)[C@@H](O)[C@@H](OC)C(=O)[C@H](C)C[C@H](C)/C=C/C=C/C=C/1C,,"phase 1 dose escalation, item: nausea",advanced solid tumour patients,"intravenous, 10 mg weekly, grade ≥3",,TRAE incidence,0%
CC(C)C[C@@H]1NC(=O)[C@H](CC(C)C)NC(=O)[C@H](Cc2c[nH]c3ccccc23)NC(=O)[C@H](CO)NC(=O)[C@H](Cc2c[nH]c3ccccc23)NC(=O)[C@@H]2CCCN2C(=O)[C@H](CC(C)C)NC(=O)[C@H](Cc2c[nH]cn2)NC(=O)[C@@H]2CCCN2C(=O)[C@H](CC(N)=O)NC(=O)[C@H](C)NC(=O)[C@H](Cc2ccc(O)cc2)NC(=O)[C@H](CS)NC(=O)[C@H](CCCCNC(=O)CN2CCN(CC(=O)O)CCN(CC(=O)O)CCN(CC(=O)O)CC2)NC1=O [lutetium-177 labelled],,,"Balb/c mouse, female, 4T1 tumour, kidney","intravenous, 3.7 MBq, 72 h",,tissue uptake,0.36 %ID
N=C(N)NCCC[C@@H]1NC(=O)[C@H](CCCCNC(=O)c2ccc(CNC34CNCCNCC(N)(CNCCNC3)CNCCNC4)cc2)NC(=O)[C@@H](Cc2ccc(O)cc2)NC(=O)[C@H](CC(=O)O)NC(=O)CNC1=O [copper-64 labelled],,microPET,"male athymic nude mouse, PC-3 tumour, liver","intravenous, 7.4 MBq, 48 h",,tissue uptake,0.73 ± 0.13 %ID/g
C[C@H]1CN(c2n[nH]c3nc(N[C@H]4CC[C@H](NS(=O)(=O)CCC(F)(F)F)CC4)ncc23)CCO1,"Mitotic checkpoint protein BUB3 (Homo sapiens, UniProt O43684)","Kinobeads competition, item: BUB3",,"0.8 µM, unit not given",baseline: vehicle,remaining binding,1.15
CC(C)C[C@H](NC(=O)C[C@H](O)[C@H](CC(C)C)NC(=O)[C@H](Cc1c[nH]cn1)NC(=O)CNC(=O)[C@@H](NC(=O)[C@H](C)NC(=O)[C@H](Cc1c[nH]c2ccccc12)NC(=O)[C@H](CCC(N)=O)NC(=O)[C@@H](Cc1ccccc1)NC(=O)CCNC(=O)CCSc1nnc(NCCC(=O)NCCC(=O)NCCCC[C@H](NC(=O)N[C@@H](CCC(=O)O)C(=O)O)C(=O)O)c2c1CCC1C(CC2)C1COC(=O)NCCNC(=O)CC[C@H](C(=O)O)N1CCN(CC(=O)O)CCN(CC(=O)O)CC1)C(C)C)C(N)=O (stereo partly drawn) [gallium-68 labelled],,,"athymic NMRI nude mouse, pancreas","intravenous, 533 pmol, 2 h",,tissue uptake,1.34 %ID/g
COc1cccc2c1C(=O)c1c(O)c3c(c(O)c1C2=O)C[C@@](O)(C(=O)CO)C[C@@H]3O[C@H]1C[C@H](NC(=O)[C@@H]2CCCN2C(=O)CNC(=O)[C@H](CC(C)C)NC(=O)[C@H](C)NC(=O)CP(=O)(O)O)[C@H](O)[C@H](C)O1,,,"healthy mice, plasma","intravenous, 849.5 mg/kg, extrapolated to time zero",,Cmax,6120 µM
C[C@@H](O)[C@@H](CO)NC(=O)[C@@H](CCCNC(=N)N)NC(=O)[C@@H]1CCCN1C(=O)[C@@H]1CSSC[C@H](NC(=O)[C@H](Cc2ccccc2)NC(=O)CN2CCN(CC(=O)O)CCN(CC(=O)O)CCN(CC(=O)O)CC2)C(=O)N[C@@H](Cc2ccc(O)cc2)C(=O)N[C@@H](Cc2ccccc2)C(=O)N[C@@H](CCC(N)=O)C(=O)N[C@@H](CC(N)=O)C(=O)N1 [gallium-68 labelled],,,"healthy Wistar rat, muscle","intravenous, 8 MBq, 60 min, individual animals",,tissue uptake,0.41 %ID/g
O=C(O)C[C@H](NC(=O)[C@H](CC(=O)O)NC(=O)[C@H](CC(=O)O)NC(=O)[C@H](CC(=O)O)NC(=O)[C@H](CC(=O)O)NC(=O)[C@H](CC(=O)O)NC(=O)[C@H](CC(=O)O)NC(=O)[C@H](CC(=O)O)NC(=O)[C@H](CC(=O)O)NC(=O)[C@H](CC(=O)O)NC(=O)[C@H](CC(=O)O)NC(=O)[C@H](CCCCNC(=O)c1ccc(C(=O)NCCOCCOB2BBBBBB3BBBB3B2)cc1)NC(=O)CN1CCN(CC(=O)O)CCN(CC(=O)O)CCN(CC(=O)O)CC1)C(=O)O [gallium-67 labelled],,gamma counting,"mouse, ddY, male, 6 weeks old, blood","intravenous, 37 kBq, 3 h",,tissue uptake,0.05 %ID/g
COc1cc(Nc2ncc(F)c(Nc3ccc4c(n3)NC(=O)C(C)(C)O4)n2)cc(OC)c1OC,"Neutrophil collagenase (MMP8, Homo sapiens, UniProt P22894)",,,metalloproteinase-8,,IC50,> 10 µM
CC(C)[C@@H]1NC(=O)[C@H](Cc2ccccc2)NC(=O)[C@@H]2NC(=O)[C@H](Cc3ccccc3)NC(=O)[C@@H]3CCCN3C(=O)CNC(=O)[C@H](Cc3ccccc3)NC(=O)[C@@H]3CNCCCC[C@@H](C(=O)O)NC(=O)[C@@H]4NC(=O)[C@H](CC(N)=O)NC(=O)CNC(=O)[C@H]([C@@H](O)C(=O)O)NC(=O)[C@H](CSC[C@@H](NC(=O)[C@H](CCC(N)=O)NC(=O)[C@H](CCCCNC(=O)c5ccc(NN)nc5)NC(=O)[C@@H](N)CS[C@H]4C)C(=O)N[C@@H](CS[C@H]2C)C(=O)N3)NC1=O [technetium-99m labelled],,,"rat, saline control, spleen","intravenous, 2 h after tracer, tracer 24 h after reperfusion",,tissue uptake,1.1 ± 0.15 %ID/g
CC[C@H](C)[C@@H]1NC(=O)[C@@H]2CCCN2C(=O)[C@H](CC(C)C)NC(=O)[C@H](CC(C)C)NC(=O)CNC(=O)[C@@H](NC(=O)[C@@H](NC(=O)[C@H](CC(=O)O)NC(=O)CNC(=O)[C@@H](NC(=O)[C@H](C)NC(=O)CNC(=O)[C@H](CCCCN)NC(=O)[C@H](CC(C)C)NC(=O)[C@H](CC(C)C)NC(=O)[C@H](CCCCN)NC(=O)CNC(=O)[C@@H](NC(=O)[C@@H](N)CC(C)C)C(C)C)C(C)C)C(C)C)CSSC[C@@H](C(=O)O)NC1=O,,"RNA-seq, item: Serpina3g mRNA","mouse traumatic brain injury, frontal cortex and hippocampus",dose not given,baseline: TBI plus compound vs TBI,log2 fold change,-2.23

# Some of these lines once more:
SMILES,target or system,test,test system,setting,how to read,quantity,value
N=C(N)NCCC[C@@H]1NC(=O)[C@H](CCCCNC(=O)c2ccc(CNC34CNCCNCC(N)(CNCCNC3)CNCCNC4)cc2)NC(=O)[C@@H](Cc2ccc(O)cc2)NC(=O)[C@H](CC(=O)O)NC(=O)CNC1=O [copper-64 labelled],,microPET,"male athymic nude mouse, PC-3 tumour, liver","intravenous, 7.4 MBq, 48 h",,tissue uptake,0.73 ± 0.13 %ID/g
C[C@H]1CN(c2n[nH]c3nc(N[C@H]4CC[C@H](NS(=O)(=O)CCC(F)(F)F)CC4)ncc23)CCO1,"Mitotic checkpoint protein BUB3 (Homo sapiens, UniProt O43684)","Kinobeads competition, item: BUB3",,"0.8 µM, unit not given",baseline: vehicle,remaining binding,1.15
